Published values from different studies.
A part holds a random share of what one study measured.

Sample 1
Target: UBE2S UBC core domain (UniProt Q16763)
Technique: yeast two-hybrid
Medium: yeast
Setting: mostly zero background
Reference: not given
Direction: higher = stronger interaction
B1: RNF32 RING domain (UniProt Q9H0A6); chain SLLQGDSVQPCPICKEEFELRPQVLLSCSHVFHKACLQAFEKFTNKKTCPLCRKNQYQTRVIH
B2: UBE4A RING domain (UniProt Q14139); chain LQQQEEETYADACDEFLDPIMSTLMCDPVVLPSSRVTVDRSTIARHLLSDQTDPFNRSPLTMDQIRPNTELKEKIQRWLAERKQQKEQLE
B3: RNF150 RING domain (UniProt Q9ULK6); chain DKETESDFDNCAVCIEGYKPNDVVRILPCRHLFHKSCVDPWLLDHRTCPMCKMNILKALGIP
B4: RFPL2 RING domain (UniProt O75678); chain MAALFQEASSCPVCSDYLEKPMSLECGCAVCLKCINSLQKEPHGEDLLCCCSSMVSRKNKIRR
B5: NSMCE1 RING domain (UniProt Q8WV22); chain RETYPDAVKICNICHSLLIQGQSCETCGIRMHLPCVAKYFQSNAEPRCPHCNDYWPHEIPKV
B6: TRIM55 RING domain (UniProt Q9BYV6); chain TMDNLEKQLICPICLEMFTKPVVILPCQHNLCRKCASDIFQASNPYLPTRGGTTMASGGRFRCPSCRHEVVLDRHG
Residues (chain): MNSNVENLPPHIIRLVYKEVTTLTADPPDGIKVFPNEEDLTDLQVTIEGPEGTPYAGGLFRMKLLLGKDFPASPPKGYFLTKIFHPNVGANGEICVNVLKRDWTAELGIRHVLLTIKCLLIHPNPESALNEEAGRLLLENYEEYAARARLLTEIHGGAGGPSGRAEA
For `KRQCSDVDDICSICQAEFQKPILLICQHIFCEECMTLWFNREKTCPLCRTVISDHINKW (RNFT1 RING domain (UniProt Q5M7Z0))`, “lacZ reporter activity” read 0.
`B1 (RNF32 RING domain)`: “lacZ reporter activity” 0.
Under “lacZ reporter activity”, `B2 (UBE4A RING domain)` is recorded as 0.
Under “lacZ reporter activity”, `KIKDLNEHIVCCLCAGYFVDATTITECLHTFCKSCIVKYLQTSKYCPMCNIKIHETQPLL (PCGF1 RING domain (UniProt Q9BSM1))` is recorded as 0.
`B3 (RNF150 RING domain)`: “lacZ reporter activity” 0.
`B4 (RFPL2 RING domain)` — result for “lacZ reporter activity”: 0.
`B5 (NSMCE1 RING domain)` — result for “lacZ reporter activity”: 0.
Under “lacZ reporter activity”, `MANWVFCNRCFQPPHRTSCFSLTNCGHVYCDACLGKGKKNECLICKAPCRTVLLSK (RNF212 RING domain (UniProt Q495C1))` is recorded as 0.
For `B6 (TRIM55 RING domain)`, “lacZ reporter activity” read 0.

Sample 2
Target: RNA binding protein fox-1 homolog 2, RRM domain, GST-SBP tag (RBFOX2, Homo sapiens, UniProt O43251-10, residues 100-194)
Technique: RNA Bind-n-Seq
Form: RNA
Medium: in vitro
Concentration: 365 nM
Setting: natural RNA segment, single round, ends assumed
Reference: no-protein control
Direction: higher = stronger binding
Construct (chain): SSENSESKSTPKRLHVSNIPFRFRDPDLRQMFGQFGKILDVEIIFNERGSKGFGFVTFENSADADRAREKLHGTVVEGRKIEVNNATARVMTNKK
Under “RBNS enrichment (R)”, `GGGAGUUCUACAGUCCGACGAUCGAGUGCCUUUUGAACGCUGGUCCCGCGGGACUUGGUUUUCUCAAGCUCUGUCUGUCCAAAGACGCUCCGGUCGAGGUCCCGCCUGCCCUGGGUGGAUACUUGAACCCCAGUGGAAUUCUCGGGUGCCAA` is recorded as 0.236.
For `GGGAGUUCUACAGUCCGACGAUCCCCUCCUGGGCCUUCUGCUGGAUGGGCACCUGGGGGGUUCUGGUUUUUACUUUUUUAAUGUAAGUCUCAGUCUUUGUAAUUAAUUAUUGAAUUGUGAGAACAUUUUUGAAUGGAAUUCUCGGGUGCCAA`, “RBNS enrichment (R)” read 0.625.
For `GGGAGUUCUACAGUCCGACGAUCUCCAAUAGUUGUGUUUGCCCAAGCCUUUCUCGGCAUCAUCUUGUAUUCCUUAUCAGAUAGUAAGUAACCUGUAAGUUUGGAGUAUUACUGUUUUCUCAGCAUGCAUUAAAUGGAAUUCUCGGGUGCCAA`, “RBNS enrichment (R)” read 30.7.
Under “RBNS enrichment (R)”, `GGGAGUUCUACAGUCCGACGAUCUUUUCCCUAUCCACAGGGGUGUUUGUGUGUGUGCGCGUGUGCGUUUCAAUAAAGUUUGUACACUUUCUUAACAGUGUCUGAUUUGCCGCCCUGCCUGCCCUCCCCAGGGCUGGAAUUCUCGGGUGCCAA` is recorded as 0.626.
Under “RBNS enrichment (R)”, `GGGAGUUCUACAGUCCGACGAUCGCAUUUUAAUUAUUUGCAAAUUAAGGUGCCACAGACACAGACUUAGUGGUAUGUAAAUGUUGACUCGGAUCACAAUCAUGUAGCAGAGGGCACUGGGCCUGUUGCCUGCCUGGAAUUCUCGGGUGCCAA` is recorded as 0.567.
For `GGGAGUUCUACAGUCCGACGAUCGCAGGCUUCUUAUGCCGUUGGUAUACAGGGCAGGAAAGAGAGGAAUAAAGGGAGAGAGCAGUGUGGAAACCACGGUGGUUUUGCUUUGUUCUUACUAGGUUUUGGUGCCAUGGAAUUCUCGGGUGCCAA`, “RBNS enrichment (R)” read 0.44.
For `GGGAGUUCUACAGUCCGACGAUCAAAACUAAUCAAUGGCACACAGGGCCAGGUGUGGCCCUGUGAGGCAAAGGAUAAUGUCACCUCAGGACCAAGGUGGAAACUUACAGCUGAAUCCAGGGCUUACUAAGUAGUGGAAUUCUCGGGUGCCAA`, “RBNS enrichment (R)” read 0.229.
For `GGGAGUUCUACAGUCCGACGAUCAAAGAGAUGAAGGAAGGAAGGAAGAGAAAAACAAAGUCAUUUGUUCAUAGUGAGGUCUCCAGCUAUGUACAUGCCGUCAGUCCUCUGGUCUCUUGAAUGUAGCCCCACCCUGGAAUUCUCGGGUGCCAA`, “RBNS enrichment (R)” read 0.267.
For `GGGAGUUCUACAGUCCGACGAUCGAACUGUAUUUUUGCCUUUAAAAUUAAAUAAUAUAACGUGAAUAAAUGACCCUAUCUUUGUAACUGCGGUGGUUUCUGUUUGCCAGGUGUAAGGGUUGUCAUGGCUGUGGUGGAAUUCUCGGGUGCCAA`, “RBNS enrichment (R)” read 1.07.

Sample 3
Target: Fragile X messenger ribonucleoprotein 1, C-terminal low-complexity region (Fmr1, Mus musculus, UniProt P35922)
Technique: RNA Bind-n-Seq
Form: RNA
Medium: in vitro
Concentration: 200 nM
Setting: whole 134-nt RNA, ends assumed
Together with: 150 mM KCl
Reference: input library
Direction: higher = stronger binding
With `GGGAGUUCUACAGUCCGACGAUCUUGCCACUCUAAAUUCAGAAGAGGAGAGCGACCCUCCAACCUACAAGGAUGCCUUCCCUCCACUUCCUGAGAAAGCUGCUUGCCUGGAAAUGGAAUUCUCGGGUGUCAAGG` the log2 enrichment was -0.116.
`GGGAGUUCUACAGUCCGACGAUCCUCAAGUCCUGUGCUACACAUCGUAUGUACCGAAUCGGGUUGGUUGGUUGGGGAAAGUAUUAUGUUACGCCGUUCGGAUCUGCACUUCCAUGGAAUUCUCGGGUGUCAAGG` gave a log2 enrichment of 0.135.
The log2 enrichment of `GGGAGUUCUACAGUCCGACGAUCUCCUGUGCUACACAUCGUAUGUACCGAAUCGGGGCCCCCGGGCCCCCGGGGCCCCCGGGAAAGUAUUAUGUUACGCCGUUCGGAUCUGCAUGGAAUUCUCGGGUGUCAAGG` is reported as -1.05.
`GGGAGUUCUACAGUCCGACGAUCUACUAUGAAGCCUUGUGCAAAUCCCUCGACUGGCAGAUAGACGUGGACCUACUCAAUAAAAUGAAGAAGGCAAAUGAAGAUGAGUUGAAGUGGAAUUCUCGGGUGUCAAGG` has a log2 enrichment of -0.435.
`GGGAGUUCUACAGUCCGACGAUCAGUCCUGUGCUACACAUCGUAUGUACCGAAUCGGUUUUUUUGGUUUUUGGUUUUUGGAAAGUAUUAUGUUACGCCGUUCGGAUCUGCACUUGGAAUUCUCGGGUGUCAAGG` gave a log2 enrichment of -0.938.
`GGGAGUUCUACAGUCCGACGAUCUCCUGUGCUACACAUCGUAUGUACCGAAUCGGGUUUGGGUUUUUUUGGGAAAAAAAGGGAAAGUAUUAUGUUACGCCGUUCGGAUCUGCAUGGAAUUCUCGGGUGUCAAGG` gave a log2 enrichment of 0.029.
With `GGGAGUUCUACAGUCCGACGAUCUGGCCCUUCCCCUGGAGCCAUGCUGGGCCCUAGCCCGGGUCCCUCGCCGGGCUCCGCCCACAGCAUGAUGGGGCCCAGCCCAGGGCCGCCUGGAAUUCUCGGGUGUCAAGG` the log2 enrichment was 0.304.
The log2 enrichment of `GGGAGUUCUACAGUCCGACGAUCACCAUGCAGGUGGGCAUCUUUGGGAAGUGUGGCAAGGGGGGGAUAGGGAGGGGGGUAACACUUUGGGAACAGGUGGUCCCAGGUCGUUUCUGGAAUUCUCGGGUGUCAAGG` is reported as 0.974.
For `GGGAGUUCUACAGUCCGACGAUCUGUGCUACACAUCGUAUGUACCGAAUCGGGAAAAAAAGGGGAAAAAAAGGGGAAAAAAAGGGGAAAGUAUUAUGUUACGCCGUUCGGAUCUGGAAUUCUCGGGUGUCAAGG`, the log2 enrichment was -0.0948.
With `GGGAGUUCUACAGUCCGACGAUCUGGCCCUGGUGGCAUGCGGGGAGGAAGAGGUGGCCUCAUGGAUCGUGGUGGUCCCGGUAGAAUGUUCAGAGGUGGCCGUGGUGGAGACAGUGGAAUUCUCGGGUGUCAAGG` the log2 enrichment was 0.0192.

Sample 4
Target: RING finger protein unkempt homolog, zinc fingers 1-6, SBP tag (UNK, Homo sapiens, UniProt Q9C0B0, residues 30-357)
Sequence of UniProt Q9C0B0 (30-357, looked up): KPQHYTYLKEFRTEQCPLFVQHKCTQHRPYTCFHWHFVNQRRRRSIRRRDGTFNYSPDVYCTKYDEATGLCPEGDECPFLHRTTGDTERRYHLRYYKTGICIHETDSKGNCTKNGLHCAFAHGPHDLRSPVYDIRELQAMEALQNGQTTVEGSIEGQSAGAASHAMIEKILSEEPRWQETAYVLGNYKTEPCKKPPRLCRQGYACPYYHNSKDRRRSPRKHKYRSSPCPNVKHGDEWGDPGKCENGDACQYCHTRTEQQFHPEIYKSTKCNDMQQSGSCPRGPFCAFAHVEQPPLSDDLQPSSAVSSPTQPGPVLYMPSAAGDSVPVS
Technique: RNA Bind-n-Seq
Form: RNA
Medium: in vitro
Concentration: 100 nM
Setting: RNA with constant flanks, vertebrate orthologous sites, ends assumed
Reference: input RNA pool
Direction: higher = stronger binding
With `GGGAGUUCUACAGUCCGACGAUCGUACUACCUGUGCAAAUCUCACAACACUGAAUACAAAGUAGCAAUUUUCAUAGUCACAGUUAGGUAGCUUUAGGGCAAUAUUGCCAUGGUUUUACUCAUGUGCAGGUUUUGAAAAUGUACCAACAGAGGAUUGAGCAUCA` the bound/input enrichment was 1.83 ratio.
`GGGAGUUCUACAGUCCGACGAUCGUCGUCUGAUUGGAUGAAGACUGUCCCAAGUUACAACCAAACAAAUAGCUCCAUGGACUUUAGAAAUUACAUGAUGAGAGAUGAGAAUCUGGAACCACUGCCCAAAAACUGGGAAAUGGCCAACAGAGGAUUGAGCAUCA` gave a bound/input enrichment of 0.672 ratio.
The bound/input enrichment of `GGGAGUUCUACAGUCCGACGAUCGGAAAAUUUUAAUCAAGAAUCAGAAGGUAGAAGUACAGGACCGUGGUUGUCUUCCUCCCUUAGAAAUAGAUGCACACCUUUGUUCUCUAGGAGGAGGCGAGAGGGAAGAGAUGAAUCUUCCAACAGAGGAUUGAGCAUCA` is reported as 0.761 ratio.
`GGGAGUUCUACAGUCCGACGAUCGACGAAGAUGGUUGUACAUUAUUCAUUUAGAAAAUAUAAAAAUUCAUUUUGUUUUGAAGCUAGUUAUUAAACUGGAAUAGCAGUUAUAUCCCUGAGAAUGGGGCCCUUCUCCUGACAUUCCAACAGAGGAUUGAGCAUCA` gave a bound/input enrichment of 3.31 ratio.
`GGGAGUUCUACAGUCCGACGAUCCACAAUCUCUACUUAAGUAGGUAUUUACAUACCACAUUAAGCCUUCAUUUUACAUAUUUACAGCUUUUCCAUUUUCCAGAUGAGGUAAAAGAAUUUCAUGCUUAAAGUUAAUUGUGGUCUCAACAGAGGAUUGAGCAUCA` gave a bound/input enrichment of 0.636 ratio.
The bound/input enrichment of `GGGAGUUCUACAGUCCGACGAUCUGGGUUACUCCUAUUAUUAUCAAGUAGCUGGAAUUGUGAAGGUUGGAGUAGUUAGAUCUUUAGCUUUUAUUCCUUUUUUUUGUAUUACUAUCCAUGUGUAUAAAUUAUUGAUCAUGUUGCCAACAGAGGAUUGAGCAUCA` is reported as 2.67 ratio.
`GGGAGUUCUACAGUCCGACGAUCUCAGAUCUAAGCCAACAGCAGUUCUAAAAUGCUAUUUAUUUGUGUCUGUAAGUUUGUACAUAGUAGUAUCAACCUCAUAUUGUUGCAGAAUUUUCCCCCCCCGCAAGUUUGAGUUGUGUUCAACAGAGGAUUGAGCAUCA` gave a bound/input enrichment of 0.632 ratio.
For `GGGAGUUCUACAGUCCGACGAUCUGUACAUCCGCAUAACUCUCAAGACCCUUCUAACCCUGUGACCCCUCAUGCAUUUAACCGUACCCACACAUCUGUUUUCUGUAAAUAGCAGGAUAAAUGCAAAGGGCCUCCCUGGAGCUUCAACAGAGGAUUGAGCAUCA`, the bound/input enrichment was 0.225 ratio.

A few entries again (sample 2):
For `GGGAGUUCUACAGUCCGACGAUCGCAGGCUUCUUAUGCCGUUGGUAUACAGGGCAGGAAAGAGAGGAAUAAAGGGAGAGAGCAGUGUGGAAACCACGGUGGUUUUGCUUUGUUCUUACUAGGUUUUGGUGCCAUGGAAUUCUCGGGUGCCAA`, “RBNS enrichment (R)” read 0.44.
For `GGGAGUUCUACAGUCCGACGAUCAAAACUAAUCAAUGGCACACAGGGCCAGGUGUGGCCCUGUGAGGCAAAGGAUAAUGUCACCUCAGGACCAAGGUGGAAACUUACAGCUGAAUCCAGGGCUUACUAAGUAGUGGAAUUCUCGGGUGCCAA`, “RBNS enrichment (R)” read 0.229.
For `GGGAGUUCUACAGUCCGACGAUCAAAGAGAUGAAGGAAGGAAGGAAGAGAAAAACAAAGUCAUUUGUUCAUAGUGAGGUCUCCAGCUAUGUACAUGCCGUCAGUCCUCUGGUCUCUUGAAUGUAGCCCCACCCUGGAAUUCUCGGGUGCCAA`, “RBNS enrichment (R)” read 0.267.
